Published values from different studies.
Lines come from different studies, so protocols differ. ± marks the error that the study gave.
UCHL1: Ubiquitin carboxyl-terminal hydrolase isozyme L1 (UCHL1, Homo sapiens, UniProt P09936)
UniProt P09936, sequence (whole entry, looked up): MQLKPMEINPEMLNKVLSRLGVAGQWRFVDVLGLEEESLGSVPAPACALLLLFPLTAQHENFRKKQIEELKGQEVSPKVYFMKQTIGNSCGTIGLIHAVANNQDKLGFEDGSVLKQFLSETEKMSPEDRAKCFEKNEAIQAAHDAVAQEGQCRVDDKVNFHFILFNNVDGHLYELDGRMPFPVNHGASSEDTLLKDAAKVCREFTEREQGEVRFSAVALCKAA
UniProt Q07794, sequence (whole entry, looked up): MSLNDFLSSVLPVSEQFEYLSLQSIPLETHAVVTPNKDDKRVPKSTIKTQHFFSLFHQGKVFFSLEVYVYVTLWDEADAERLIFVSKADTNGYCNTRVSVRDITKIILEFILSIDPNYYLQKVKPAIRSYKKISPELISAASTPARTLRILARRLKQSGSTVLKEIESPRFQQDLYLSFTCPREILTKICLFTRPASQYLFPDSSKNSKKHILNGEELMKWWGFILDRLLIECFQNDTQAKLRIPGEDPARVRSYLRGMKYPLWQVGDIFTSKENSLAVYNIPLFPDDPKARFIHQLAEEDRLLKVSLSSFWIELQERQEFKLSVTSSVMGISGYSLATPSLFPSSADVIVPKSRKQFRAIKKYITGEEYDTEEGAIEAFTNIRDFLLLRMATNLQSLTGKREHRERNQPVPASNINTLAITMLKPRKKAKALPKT

`CCc1nc(C(N)=O)c(Nc2ccc(N3CCC(N4CCN(C)CC4)CC3)c(OC)c2)nc1NC1CCOCC1` gave a Cmax of 206 ng/mL (Japanese patients, plasma; oral, 80 mg, cycle 1 day 28, multiple doses, mean).
`Cc1nc(-c2cnc(NC(C)C)n(C)c2=O)ccc1Oc1ccnc(-c2cnn(C)c2)c1` gave a Cmax of 2510 ng/mL (Beagle dog, male, plasma; intravenous, 1 mg/kg).
The IC50 of `S=c1[nH]nc(-c2ccccc2)o1` is reported as 66 ± 4 µM (Histone acetyltransferase RTT109, with Vps75 (Saccharomyces cerevisiae, UniProt Q07794); enzyme activity, inhibitor, HTS, CPM-based, dose response).
`C[C@H]1CN(C(=O)CC#N)[C@]12CCN(c1ncnc3[nH]ccc13)C2` gave a Cmax of 101 ng/mL (healthy adults, plasma; oral, 12 mg single dose, median).
The labelling of `CC(Cl)C(=O)NC1CCc2nc(-c3cc(F)ccc3F)cn2C1` (stereo not drawn) is reported as 11.5% (UCHL1; covalent, intact protein LC-MS; 12.5 µM).
For `COc1ccc(C[C@@H](C)[C@@H](C)Cc2ccc(OC)c(OC)c2)cc1OC`, the Cmax was 1440 ± 224 ng/mL (beagle dog male, plasma; oral, 100 mg/kg/day, day 28).
For `N=C(N)NCCC[C@@H](NC(=O)CCOCCOCCNC(=O)[C@H](CCCCNC(=O)CC[C@H](NC(=O)c1ccc(NCc2cnc3nc(N)[nH]c(=O)c3n2)cc1)C(=O)O)NC(=O)CO/N=C/[C@H](F)[C@@H](O)[C@H](O)[C@H](O)CO)C(=O)NCC(=O)N[C@H](CC(=O)O)C(N)=O` [fluorine-18 labelled], “maximum lung uptake” read ≤ 1.35 %ID/g (female nude mice, MDA-MB-231 xenograft, lung; 45 min to 2.5 h).
With `COCCOc1cnc2ccn([C@H](C)c3nnc4c(F)cc(-c5cnn(C)c5)cn34)c(=O)c2c1` the Cmax was 2290 ng/mL (patients, plasma; oral, 100 mg twice daily, day 1, 200 per day).
The labelling of `CC(Cl)C(=O)N1c2ccccc2NC(=O)C1(C)C` (stereo not drawn) is reported as 9.79% (UCHL1; covalent, intact protein LC-MS; 12.5 µM).
`O=C(NN(c1ccccc1)c1ccccc1)c1ccc([N+](=O)[O-])o1` has an inhibition of 0.28% (Trypanosoma cruzi; reporter translation, Renilla luciferase mRNA translation; cell-free extract; 40 µM; relative to: DMSO).
`CCCCC1=NC2(CCCC2)C(=O)N1Cc1ccc(-c2ccccc2S(=O)(=O)Nc2noc(C)c2C)c(COCC)c1` has a Cmax of 12300 ng/mL (healthy adult volunteers, plasma; oral, 1600 mg, single dose, fasted, crushed tablet).
For `Cn1c(C(F)(F)F)cc(=O)n(-c2cc(Oc3cccnc3OCC(=O)O)c(Cl)cc2F)c1=O`, the Cmax was 5210 ng/mL (beagle dog, male, plasma; oral capsule, 300 mg/kg/day epyrifenacil, day 1, 90-day study).
`COc1ccc(-n2nc(C(N)=O)c3c2C(=O)N(c2ccc(N4CCCCC4=O)cc2)CC3)cc1` gave a Cmax of 822 ng/mL (healthy mixed-breed dogs; oral, 0.5 mg/kg every 12 h, 7 days).
`COc1ncc(-c2nc3c(n2C(C)C)[C@H](c2ccc(Cl)cc2)N(c2cc(Cl)cn(C)c2=O)C3=O)c(OC)n1` has a Cmax of 663 ng/mL (LC-MS/MS; human, plasma; oral, 100 mg, cycle 1 day 1, high-dose arm).
`Cl.[2H]C([2H])([2H])CC(=O)c1cnc(NC(=O)C2CC2)cc1Nc1cccc(-c2ncn(C([2H])([2H])[2H])n2)c1OC` has a Cmax of 253 ng/mL (geometric mean; human; oral, 25 mg single dose, fasted, liquid).
`CCN1CCN(Cc2ccc(Nc3ncc(F)c(-c4cc(F)c5nc6n(c5c4)[C@H](C)CCC6)n3)nc2)CC1` gave a Cmax of 394 ng/mL (human, Phase Ib patients, plasma; 400 mg, multiple doses, mean, with: fulvestrant).
With `C[C@@H]1CCO[C@H]2Cn3cc(C(=O)NCc4ccc(F)cc4F)c(=O)c(O)c3C(=O)N12` the Cmax was 2570 ng/mL (human paediatric patients, weight 6 to under sample A kg, plasma; oral, 8 mg granules, steady state, geometric mean, population PK post-hoc, N 2).
For `COc1cc2c3c(n(CCCN4CCOCC4)c(=O)c2cc1OC)-c1cc2c(cc1C3=O)OCO2`, the Cmax was 180 ng/mL (beagle dogs, female, plasma; oral, 1720 mg/m^2, gelatin capsules).
